# Results of several laboratories.
# Each numbered part is a random draw from the data of one study; scales do not carry over between parts. Positions count from the first letter of the parent shown.

# Study 1
# Target: RING finger protein unkempt homolog, zinc fingers 1-6, GST-SBP tag (UNK, Homo sapiens, UniProt Q9C0B0, residues 30-357)
# UniProt Q9C0B0, sequence (30-357, looked up): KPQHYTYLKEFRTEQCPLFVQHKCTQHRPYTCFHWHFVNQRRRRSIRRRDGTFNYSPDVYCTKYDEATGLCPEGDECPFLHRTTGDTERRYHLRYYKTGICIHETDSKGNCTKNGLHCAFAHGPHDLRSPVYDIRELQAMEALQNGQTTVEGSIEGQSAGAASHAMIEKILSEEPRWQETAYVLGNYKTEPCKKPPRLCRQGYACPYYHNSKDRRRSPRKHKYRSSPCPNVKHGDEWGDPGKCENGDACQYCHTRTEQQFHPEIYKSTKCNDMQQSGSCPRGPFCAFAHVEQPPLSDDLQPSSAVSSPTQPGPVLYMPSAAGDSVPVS
# Method: RNA Bind-n-Seq
# Form: RNA
# Sample: in vitro
# Tested at: not given
# Setting: RNA with constant flanks, human and mouse sites, ends assumed
# Baseline: input RNA pool
# Direction: higher = stronger binding
Strand,bound/input enrichment
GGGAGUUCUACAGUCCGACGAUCUUGGUCAUAUCAAACAUUAAAAAUGACCACUCUUUUAAUUGAAAUUAACUUUUAAAUGUUUAUAGGAGUAUGUGCUGUGAAGUGAUCUAAAAUUUGUAAUAUUUUUGUCAUGAACUGUACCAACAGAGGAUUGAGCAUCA,0.431 ratio
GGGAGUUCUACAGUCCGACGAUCAUCCCACUGGGGAACUAGUCCUGUCCAUCUGGUGUUGGCGUGCUGGCUGCACACUUUGUUUUAGGGCCUGAACACCUGUGUGUAUGUGUGUGUGUAUGUGUGUGUGUGCGUGCGUGUGCUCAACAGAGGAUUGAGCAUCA,0.539 ratio
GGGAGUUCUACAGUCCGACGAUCGCAGUGGAAUUUUUCAUCAGAGAUAAAUAUGAAAAGAAGAAAUACUACGAUAAAAAUGCCAUAGCUAUUACAAAUAAAGAAAAGGAAAAAAAAAAGGAAGAGAAAAAGAGAGAAAAGGAGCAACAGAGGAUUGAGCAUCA,2.8 ratio
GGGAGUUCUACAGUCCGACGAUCGCAAGACGGUGCAGCGUGACAUCCGUGGAGUCCACAGUGUCCUCGGGGACCCAGACAGCCAUUCAGGAUGACCCAGAGCAGUUUGAGGUCAUCAAACAACAGAAGGAAAUCAUUGAGCAUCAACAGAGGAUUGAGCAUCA,0.0892 ratio
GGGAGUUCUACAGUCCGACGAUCACUGGUGGUGCAGCCUCUGUGAAGCAGCACCAUUCAAGUGCCCAUAACAAAGAUAUUGCUUUAGGGGUAUUUGAUGUGGUGGUGACGGACCCCUCAUGCCCAGCCUCGGUGCUGAAGUGUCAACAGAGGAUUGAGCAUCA,0.0841 ratio
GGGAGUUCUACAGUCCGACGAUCCUUUUGCAGUUUGACACUAAGAUAACUUCUGUGUGCAUUUUUCUAUGCUUUUUUAAAAACUAGUUUCAUUUCAUUUUCAUGAGAUGUUUGGUUUAUAAGAUCUGAGGAUGGUUAUAAAUACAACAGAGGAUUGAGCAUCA,0.317 ratio
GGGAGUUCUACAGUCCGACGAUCUCCCAGUACUAUCAGUAUUCUAGCAAUAAUCCCCGAAGGAGGCCUCUUCACAGUAGUGCCAUGGAGGUACAGACAAAGAAAGUUCGAAAAGUUCCUCCAGGUUUGCCAUCUUCAGUCUAUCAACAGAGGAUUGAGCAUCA,1.11 ratio
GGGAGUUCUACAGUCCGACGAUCGAUCGAACCUGGUCAUUGUGGAAAAAGCAGGAUACAAUCUCACCUGAGUUCGAGCCAGUUUUUAGUCUUUUUGCCUUCACCAACAAAAUUACUUCUGUGCACAGUAGAAUUAUUUGGUCUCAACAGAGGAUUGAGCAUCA,2.02 ratio

# Study 2
# Target: CCNA2, cyclin fold, Cln2 fusion (human)
# Method: yeast growth competition, sequencing
# Sample: yeast
# Setting: strong parent motif
# Baseline: not given
# Direction: higher = stronger binding
# Starting sequence: RBL2 docking peptide (human); STTRRRLFVENDS; partner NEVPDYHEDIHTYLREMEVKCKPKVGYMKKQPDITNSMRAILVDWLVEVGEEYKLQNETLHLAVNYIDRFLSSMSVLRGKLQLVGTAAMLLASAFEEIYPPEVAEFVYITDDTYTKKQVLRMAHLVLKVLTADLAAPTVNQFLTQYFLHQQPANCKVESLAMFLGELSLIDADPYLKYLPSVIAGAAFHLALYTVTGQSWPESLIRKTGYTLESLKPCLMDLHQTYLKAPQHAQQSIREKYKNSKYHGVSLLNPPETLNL
Substitution,normalised enrichment score
STTRRRLFVFNDS [E10F],4.49
STTRRRLFVERDS [N11R],5.61
STTRLRLFVENDS [R5L],0.242
STTRRRLFVENDI [S13I],5.96
QTTRRRLFVENDS [S1Q],5.44
STTRRRDFVENDS [L7D],1
STTRWRLFVENDS [R5W],0.0859
STFRRRLFVENDS [T3F],5.19
STTRRRLFVENDW [S13W],5.39
STTRRRLFVENDN [S13N],4.71
STTRRRKFVENDS [L7K],0.199
STTRRRLFVTNDS [E10T],4.78
STTRRRLFVENES [D12E],4.69
STTRRRLSVENDS [F8S],0.413
SQTRRRLFVENDS [T2Q],5.25
STTRRRLFVINDS [E10I],3.58
STTRRRLFVENHS [D12H],5.55
STTRRSLFVENDS [R6S],2.75
STTRRRCFVENDS [L7C],0.486
STTRRRLFVENDY [S13Y],5.91
STTRRILFVENDS [R6I],2.38
STTRRRLFVCNDS [E10C],4.47
STTRRRLCVENDS [F8C],1.56
STTRRRQFVENDS [L7Q],0.378
STTRRRMFVENDS [L7M],1.34

# Study 3
# Target: Ras GTPase-activating protein-binding protein 1, full length (G3BP1, Homo sapiens, UniProt Q13283)
# UniProt Q13283, sequence (whole entry, looked up): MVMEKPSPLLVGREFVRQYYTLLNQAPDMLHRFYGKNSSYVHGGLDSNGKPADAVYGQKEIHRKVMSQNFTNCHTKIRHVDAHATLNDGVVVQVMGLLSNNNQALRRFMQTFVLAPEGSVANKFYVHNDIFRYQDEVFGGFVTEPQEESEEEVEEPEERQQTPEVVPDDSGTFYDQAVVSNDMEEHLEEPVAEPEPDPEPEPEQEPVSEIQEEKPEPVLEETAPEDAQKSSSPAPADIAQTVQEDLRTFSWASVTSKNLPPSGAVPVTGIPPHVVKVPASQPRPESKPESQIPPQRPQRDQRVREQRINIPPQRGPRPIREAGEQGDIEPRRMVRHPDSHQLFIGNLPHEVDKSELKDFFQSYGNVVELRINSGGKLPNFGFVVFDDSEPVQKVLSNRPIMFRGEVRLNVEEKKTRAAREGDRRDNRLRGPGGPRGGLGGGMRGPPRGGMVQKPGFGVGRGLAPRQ
# Method: RNA Bind-n-Seq
# Form: RNA
# Sample: in vitro
# Tested at: 200 nM
# Setting: whole 134-nt RNA, ends assumed
# With: 150 mM KCl
# Baseline: input library
# Direction: higher = stronger binding
Strand,log2 enrichment
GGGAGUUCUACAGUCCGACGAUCUACUAUCAAACAAUCGGAAACCACGCGUCCUACUACAAAGAUGCUCUGCGGUUUUUGGGCUGUGUUGACAUCAAGGAUCUACCAGGUAACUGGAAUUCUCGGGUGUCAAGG,-1.2
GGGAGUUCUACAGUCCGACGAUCAUUCUAUAAAUGGCAAGUAAGCCUGAAGUGAGGAUACUGCAAUUUUCGGAGAAAAGAACAGCAGCUCUUUAAGUGUUUGCAUUUUCUAUUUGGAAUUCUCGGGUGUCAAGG,-1.52
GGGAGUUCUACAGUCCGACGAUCUCAAGUCCUGUGCUACACAUCGUAUGUACCGAAUCGGAGGAAAAAAAGGUUUGGAAAGUAUUAUGUUACGCCGUUCGGAUCUGCACUUCCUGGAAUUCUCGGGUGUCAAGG,-1.22
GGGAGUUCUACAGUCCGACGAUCUGCUUCUCUAUGGAAAGGACUUUCCCCCAAGCUGGACGAGGCAUUAAGAAGGAUAGAGGACUCCAGCAGGCUGACUCUACACUUCAUCAUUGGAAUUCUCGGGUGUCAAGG,0.343
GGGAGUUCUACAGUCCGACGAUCACCAUGCAGGUGGGCAUCUUUGGGAAGUGGGGCAAGGGGGGGAUAGGGAGGGGGGUACCACUUUGGGAACAGGUGGUCCCAGGUCGUUUCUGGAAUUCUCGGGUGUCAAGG,1.4
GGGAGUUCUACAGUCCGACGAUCUAGCCAAGAGUCGAAGCUAAACCAGAAGUUCAAUCUCAGCCACCUCGUGUGCGUGAACAACGACCUAGAGAACGACCUGGUUUUCCUCCUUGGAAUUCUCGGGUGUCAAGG,-0.329
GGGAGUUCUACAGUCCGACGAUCUAACUUUAGCGGAGGAUCUGAUGGAUAUGGCAGUGGACGUGGAUUUGGGGAUGGCUAUAAUGGGUAUGGAGGAGGACCUGGAGGUGGCAAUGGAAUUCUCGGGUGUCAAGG,0.459
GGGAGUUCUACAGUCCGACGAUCCAAGUCCUGUGCUACACAUCGUAUGUACCGAAUCGGGUUUUGGUUUUGGGUUUUGGAAAGUAUUAUGUUACGCCGUUCGGAUCUGCACUUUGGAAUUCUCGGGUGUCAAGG,-1.18
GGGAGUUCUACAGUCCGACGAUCCAAGUCCUGUGCUACACAUCGUAUGUACCGAAUCGGGUUUUUGGGUUUGGGAGGGAAAGUAUUAUGUUACGCCGUUCGGAUCUGCACUUCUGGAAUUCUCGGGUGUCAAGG,0.403

# Study 4
# Target: CREBZF, bZIP domain (human)
# Method: DHFR protein complementation
# Sample: yeast
# Setting: single substitutions, most at no-binding floor
# Baseline: wild-type JUN-FOS pair
# Direction: higher = stronger binding
# Starting sequence: JUN, bZIP domain (human); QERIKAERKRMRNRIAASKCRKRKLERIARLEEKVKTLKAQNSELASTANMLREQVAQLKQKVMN; partner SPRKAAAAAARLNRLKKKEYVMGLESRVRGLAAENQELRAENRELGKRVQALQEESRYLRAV
Substitution,binding fitness [natural log]
A29W,-1.41
S47H,-1.42
T37S,-1.37
I28V,-1.46
A29Y,-1.58
Q55H,-1.52
K36A,-1.54
R53S,-1.51
L52A,-1.5
A57T,-1.33
E32Q,-1.46
A49S,-1.55
V35L,-1.45
L45Q,-1.39
T48A,-1.37
Q55T,-1.4

# Mixed results
Molecule,target,assay,test system,conditions,scale,measurement,result
"PhoQ, residues 284 288 289 292 302 303 ASASEQ","PhoP, residues 12 14 15 18 19 NHFIF (Escherichia coli, UniProt P23836)","Sort-seq, refers to: YFP reporter",E. coli,"PhoQ-PhoP variant library, with: 10 µM Mg2+","baseline: high Mg2+ state, higher = stronger signaling",fold induction,10.1

# Some of these lines once more (study 1):
Strand,bound/input enrichment
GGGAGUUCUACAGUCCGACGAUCAUCCCACUGGGGAACUAGUCCUGUCCAUCUGGUGUUGGCGUGCUGGCUGCACACUUUGUUUUAGGGCCUGAACACCUGUGUGUAUGUGUGUGUGUAUGUGUGUGUGUGCGUGCGUGUGCUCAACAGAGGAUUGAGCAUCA,0.539 ratio
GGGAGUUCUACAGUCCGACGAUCGCAGUGGAAUUUUUCAUCAGAGAUAAAUAUGAAAAGAAGAAAUACUACGAUAAAAAUGCCAUAGCUAUUACAAAUAAAGAAAAGGAAAAAAAAAAGGAAGAGAAAAAGAGAGAAAAGGAGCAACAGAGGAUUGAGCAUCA,2.8 ratio
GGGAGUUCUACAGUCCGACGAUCGCAAGACGGUGCAGCGUGACAUCCGUGGAGUCCACAGUGUCCUCGGGGACCCAGACAGCCAUUCAGGAUGACCCAGAGCAGUUUGAGGUCAUCAAACAACAGAAGGAAAUCAUUGAGCAUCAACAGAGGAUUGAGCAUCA,0.0892 ratio
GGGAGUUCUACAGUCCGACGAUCACUGGUGGUGCAGCCUCUGUGAAGCAGCACCAUUCAAGUGCCCAUAACAAAGAUAUUGCUUUAGGGGUAUUUGAUGUGGUGGUGACGGACCCCUCAUGCCCAGCCUCGGUGCUGAAGUGUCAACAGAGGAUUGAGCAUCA,0.0841 ratio
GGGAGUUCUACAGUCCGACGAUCCUUUUGCAGUUUGACACUAAGAUAACUUCUGUGUGCAUUUUUCUAUGCUUUUUUAAAAACUAGUUUCAUUUCAUUUUCAUGAGAUGUUUGGUUUAUAAGAUCUGAGGAUGGUUAUAAAUACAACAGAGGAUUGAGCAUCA,0.317 ratio
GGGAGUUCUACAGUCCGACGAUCUCCCAGUACUAUCAGUAUUCUAGCAAUAAUCCCCGAAGGAGGCCUCUUCACAGUAGUGCCAUGGAGGUACAGACAAAGAAAGUUCGAAAAGUUCCUCCAGGUUUGCCAUCUUCAGUCUAUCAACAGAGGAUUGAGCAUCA,1.11 ratio
